Results from different studies.
Each line is one published result; not all experiments were run side by side. Numbers after ± are the reported error.

COc1cc(CNC(=O)CCCC/C=C/C(C)C)ccc1O — EC20 (cytochrome c release, ELISA; BALB/cByJ female mouse liver mitochondria; 30 min; relative to: alamethicin maximal release): > 200 µM
O=C(CCCCCCC(=O)Nc1ccccc1)NO — AUC(0-7 h) (patients, serum; oral, 1000 mg, cycle -1, alone): 37.5 µM·h
CCCOc1ccc([C@H]2CNC(=O)N2c2ccc3[nH]cnc3c2)cc1 — AUC(0-inf) (human, plasma; oral, 10 mg, single dose, fasted): 66.1 ng·h/mL
CS(=O)(=O)Nc1ccc(C(=O)O[C@@H](Cc2c(Cl)c[n+]([O-])cc2Cl)c2ccc(OC(F)F)c(OCC3CC3)c2)cc1OCC1CC1 — tmax (human, plasma; inhaled, 2000 µg single dose, single-dose dry powder inhaler): 2 h
CC1=C2C[C@H]3[C@@H](CC[C@@H]4C[C@H](NS(C)(=O)=O)CC[C@@]43C)[C@@H]2CC[C@@]2(C1)O[C@@H]1C[C@H](C)CN[C@H]1[C@H]2C — Tmax (patients, plasma; oral, 180 mg single, day -7, cycle 1): 5.47 h
CCc1cc2c(C(=O)c3cc(Br)c(O)c(Br)c3)c(OC)ccc2o1 — microsomal CLint (metabolic stability; Sprague-Dawley rat, liver microsomes; 1 µM, pH 7.4): 6.2 µL/min/mg
Cn1c(-c2ccc(C(N)=O)cc2F)nnc1C(C)(C)Oc1c(F)cc(Cl)cc1F — half-life range over subjects (young non-Japanese adults, plasma; oral, 50 mg single dose, day 1, high-dose multiple-dose study): 8.92 to 27.6 h
O=S(=O)(O)Oc1cc([C@H]2Oc3cc(O)cc(O)c3C[C@H]2O)ccc1O — mean concentration (human, fasted baseline, cerebrospinal fluid): 12.1 nM
CC(C)[C@H](N)C(=O)OCC1(CO)C/C1=C/n1cnc2c(=O)[nH]c(N)nc21.Cl (mixture of isomers) — elimination half-life (item: prodrug; Swiss-Webster mouse (male), plasma; intravenous, 24.6 mg/kg, two-compartment model): 5.02 h
CS(=O)(=O)n1cc2c(n1)CN([C@H]1CO[C@H](c3cc(F)ccc3F)[C@@H](N)C1)C2 — AUC(0-last) (healthy male human, plasma; oral, 50 mg, fasted single dose): 41 µM·h
Nc1c(Br)cc(Br)cc1CN[C@H]1CC[C@H](O)CC1 — EC20 (mitochondrial swelling; BALB/cByJ female mouse liver mitochondria; 30 min, with: succinate + rotenone; relative to: CaCl2 maximal swelling): > 400 µM
COc1ccc2nc([S@@+]([O-])Cc3ncc(C)c(OC)c3C)[nH]c2c1 — adverse events (human healthy; 40 mg, infections and infestations): 0%
CO[C@@]12[C@H](COC(N)=O)C3=C(C(=O)C(C)=C(N)C3=O)N1C[C@@H]1N[C@@H]12 — EC20 (cytochrome c release, ELISA; BALB/cByJ female mouse liver mitochondria; 30 min; relative to: alamethicin maximal release): > 200 µM
CC(C)(CC(=O)N1CCCC1)NCC(=O)N1C[C@@H](F)C[C@H]1C#N — AUC(0-tau) at steady state (Chinese type 2 diabetes patients, plasma; oral, 100 mg once daily, multiple doses): 1420 ng·h/mL
COc1cc(Nc2ncc3c(n2)-c2ccc(Cl)cc2C(c2c(F)cccc2OC)=NC3)ccc1C(=O)O — AUC(0-8h) (human, phase I; oral, 40 mg twice daily, with: combination with other drug): 7670 ± 1510 ng·h/mL
[2H]C([2H])([2H])Oc1cc2c(cc1OC([2H])([2H])[2H])C1CC(=O)C(CC(C)C)CN1CC2 (stereo not shown) — dose-normalized Cmax (item: deuterated total (α+β)-HTBZ; healthy human volunteers, plasma; oral, 12 mg single dose, standard meal): 2.6 ng/mL
